Measurements from different studies.
Each numbered part is a random draw from the data of one study; scales do not carry over between parts. Changes are numbered by the printed parent chain.

Study 1 — technique: EMSA with sequencing; molecule type: double-stranded DNA, one strand shown; matrix: in vitro; concentration: 10 and 20 nM; baseline: negative control set to 0; direction: higher = stronger binding
Target: Hepatocyte nuclear factor 3-alpha (Foxa1, Mus musculus, UniProt P35582, residues 1-468, full length assumed)
Setting: whole designed probe, mean of two concentrations, ends assumed
All sequences stand within: GTGAGCGGTGCCCATTGATGGGGAAC … TTTCACTGGGATCGTGGGGAC
Residues (chain): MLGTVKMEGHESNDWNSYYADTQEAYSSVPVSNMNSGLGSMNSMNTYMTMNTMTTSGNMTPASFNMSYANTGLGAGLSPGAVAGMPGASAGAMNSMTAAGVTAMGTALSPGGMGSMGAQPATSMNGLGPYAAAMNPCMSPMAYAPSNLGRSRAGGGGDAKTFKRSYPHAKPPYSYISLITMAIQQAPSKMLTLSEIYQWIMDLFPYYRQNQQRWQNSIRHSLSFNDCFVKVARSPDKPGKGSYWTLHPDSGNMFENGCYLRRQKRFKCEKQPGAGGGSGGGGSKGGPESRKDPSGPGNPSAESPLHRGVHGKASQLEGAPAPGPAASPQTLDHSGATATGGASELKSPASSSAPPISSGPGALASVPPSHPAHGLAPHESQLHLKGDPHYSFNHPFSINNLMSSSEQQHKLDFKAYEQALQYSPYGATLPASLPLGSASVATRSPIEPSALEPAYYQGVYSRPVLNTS
Under “normalised bound fraction”, `GTTTCGAGATATGGCATAAACTTTCAAGCTGAGTAAATGGTAGAAAGGTTAGCCAAGTCAACTTGGGGGTCGAATTTTAAGGAAATCTCAAAGTAATCTAGCTAATCTATAGGAAGTGAGAGATAATTTTAGTATTGCTGAACTTTCACATTCTTGTAAATTCCACTGGAGCGCATGGCTTTGCAGGAGCAGT` is recorded as -0.0888 ratio.
`TCCCCATGGCTGATATGTTATTTTCCTCATCTACAGAGATTTCTGTCCACCAAGAACTCCATCATAGTGTTTTTACATTCTCCATTTTTATGCAGATTACAGAAACAGAAACTGTCCTTTTCAGATGGGGTCTCAAGCGCAGCCCAACATACCACAGGAAGAAATTGCCCCATCTTCCCTGGAGAAAATGCCA`: “normalised bound fraction” 0.000596 ratio.
Under “normalised bound fraction”, `GTCCCTGGGCCTGGCTTGGGACAGACAGAGGCGTCATCTTGTTCTCATATGCGGGAAGGCTATGAAAAGAAAACCGCGTGTTGGTCCAAAATGTAAACAAGAATTACACTAGGATCTTTTGTTCTCACTCTGACATGGTCAGAATTAATTTGGAGGTCCAAAAAGAGGGCGTTTTGTTTTTTAATCTGAATTA` is recorded as 0.335 ratio.
`GCACCACTCAGCCCCTCCTAGTCCGCTGGAGAAAGTGGCTGAGGGGGTGGTGGGGGATAATTGCATTTCCAAAGTCCGGGCAATCAGCCAATGTAAACAGGCACCTGCATCACTGTGTGGGCTCTCTAGGCAACAGGTAAAATACATCAAATACACACAATTTCCTGACATTCCAATGCATTTCTGCGTGAGC` — result for “normalised bound fraction”: 0.249 ratio.
Under “normalised bound fraction”, `ATCTTCCCCCTCTTCCTTGCCCCACCAGCTCACCTTCCCGGGTTATTTGCAGATAGGAAAATAAATAAAGCCGGCATTCGTTAACCCTCTTCTGGCGCAAACTGCTGTTTGCTCTGCATGAATCATGGTCCTTACGCGAGGCGTGGCTCCGGGAGAGCAAAGCACCGTGTCAGGCGCATGATCCGGGGTGGCC` is recorded as 0.348 ratio.

Study 2 — technique: protein-binding microarray; molecule type: double-stranded DNA, one strand shown; matrix: in vitro; concentration: 2200 nM top; setting: 60-bp whole probe; with: salmon DNA 0.4 mg/ml; baseline: random background probes; direction: higher = stronger binding; all sequences stand within: GCCTAGCAC … GTCTTGATTCGCTTGACGCTGCTG
Target: Interferon regulatory factor 7, full length, phosphomimetic (IRF7, Homo sapiens, UniProt Q92985, residues 1-503, S471D/S472D/S475D/S476D/S477D/S483D/S484D/S487D)
Sequence of UniProt Q92985 (whole entry, unmodified, looked up): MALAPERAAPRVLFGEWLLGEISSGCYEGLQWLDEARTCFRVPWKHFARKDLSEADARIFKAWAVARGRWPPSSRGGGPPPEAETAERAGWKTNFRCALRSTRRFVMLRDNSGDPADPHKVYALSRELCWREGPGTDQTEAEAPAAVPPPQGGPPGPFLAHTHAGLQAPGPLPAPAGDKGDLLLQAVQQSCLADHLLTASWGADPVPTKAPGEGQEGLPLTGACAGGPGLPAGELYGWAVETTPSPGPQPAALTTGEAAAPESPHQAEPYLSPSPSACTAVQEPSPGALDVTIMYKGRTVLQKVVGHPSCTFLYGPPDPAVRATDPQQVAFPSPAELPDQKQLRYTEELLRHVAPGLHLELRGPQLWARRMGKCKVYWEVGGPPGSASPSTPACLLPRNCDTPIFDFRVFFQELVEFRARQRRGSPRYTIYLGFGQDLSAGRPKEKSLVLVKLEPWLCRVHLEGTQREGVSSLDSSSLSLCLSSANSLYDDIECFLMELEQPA
For `ATTGGTCTTCACTTGGCAAAGTGCTAG`, “fitted relative affinity” read 0.834 z-score.
`TCAACCATCATCCTCACACTGTGCTAG`: “fitted relative affinity” 1.36 z-score.
`GACGATATCAGTAACGAGACGTGCTAG` — result for “fitted relative affinity”: 0.0804 z-score.
Under “fitted relative affinity”, `GTCAGGGGTCTTGCTCTGTAGTGCTAG` is recorded as -0.78 z-score.
`TGTGCTTTCCTGATGGTTCTGTGCTAG` — result for “fitted relative affinity”: 2.33 z-score.
Under “fitted relative affinity”, `GACGGTCTCCTTCCCCTGACGTGCTAG` is recorded as 0.892 z-score.
Under “fitted relative affinity”, `TTAGAACTGGCGTTTCGATTAGTGCTA` is recorded as 0.921 z-score.
`AAACCATTTTTTTTCACTATGTGCTAG`: “fitted relative affinity” 1.23 z-score.
For `TTAGGACTGCTTCACCTTTAGTGCTAG`, “fitted relative affinity” read 0.419 z-score.
Under “fitted relative affinity”, `GACGGACTGCTTATCCTGCCGTGCTAG` is recorded as 0.214 z-score.
`GACGGTATCGGTTTCCGGACGTGCTAG` — result for “fitted relative affinity”: 2.75 z-score.
`TTAGGACTAGGGACTGGGTTAGTGCTA` — result for “fitted relative affinity”: -0.963 z-score.
Under “fitted relative affinity”, `GACGAACTGAGACTTGAGACGTGCTAG` is recorded as -0.0774 z-score.
Under “fitted relative affinity”, `TTTCTTACATGCATCATAACGTGCTAG` is recorded as 2.1 z-score.
`TCATTTTTCACTATTGCACTGTGCTAG`: “fitted relative affinity” 2.92 z-score.
For `CTCCCCCTCAGATCTGCCGTCGTGCTA`, “fitted relative affinity” read -0.0143 z-score.
`TTAGGTTTCGGGTCTCGGTTAGTGCTA` — result for “fitted relative affinity”: 8.29 z-score.
For `GACGGTTTCGGTTCCTGGACGTGCTAG`, “fitted relative affinity” read 12.2 z-score.
For `GTACCACTCCAGTTCTGGGAGTGCTAG`, “fitted relative affinity” read 0.589 z-score.

Study 3 — target: UBE2G2 UBC core domain (UniProt P60604); technique: yeast two-hybrid; matrix: yeast; setting: mostly zero background; baseline: not given; direction: higher = stronger interaction
B1: RNF11 RING domain (UniProt Q9Y3C5); chain RDGSEKKIRECVICMMDFVYGDPIRFLPCMHIYHLDCIDDWLMRSFTCPSCMEPVDAALLSS
B2: RNF32 RING domain (UniProt Q9H0A6); chain VQALRRETHECSICLAPLSAAGGQRVGAGRRSREMALLSCSHVFHHACLLALEEFSVGDRPPFHACPLCRSCYQKKILEC
B3: TRIM2 RING domain (UniProt Q9C040); chain VRQIDKQFLICSICLERYKNPKVLPCLHTFCERCLQNYIPAHSLTLSCPVCRQTSILPEKGV
B4: ARIH1 RING domain (UniProt Q9Y4X5); chain NTRSSAQDMPCQICYLNYPNSYFTGLECGHKFCMQCWSEYLTTKIMEEGMGQTISCPAHGCDILVDDNTVM
B5: TRIM74 RING domain (UniProt Q86UV6); chain SLLELEDWLQCPICLEVFKESLMLQCGHSYCKGCLVSLSYHLDTKVRCPMCWQVVDGSSSLP
B6: TRIM68 RING domain (UniProt Q6AZZ1); chain LVEAIVEEVACPICMTFLREPMSIDCGHSFCHSCLSGLWEIPGESQNWGYTCPLCRAPVQPRNLRP
B7: RNF130 RING domain (UniProt Q86XS8); chain DKETDPDFDHCAVCIESYKQNDVVRILPCKHVFHKSCVDPWLSEHCTCPMCKLNILKALGIV
B8: UBE4B RING domain (UniProt O95155); chain KNARAEIDYSDAPDEFRDPLMDTLMTDPVRLPSGTIMDRSIILRHLLNSPTDPFNRQTLTESMLEPVPELKEQIQAWMREKQNSDH
B9: RNF7 RING domain (UniProt Q9UBF6); chain AICRVQVMDACLRCQAENKQEDCVVVWGECNHSFHNCCMSLWVKQNNRCPLCQQDWVVQRIGK
Construct (chain): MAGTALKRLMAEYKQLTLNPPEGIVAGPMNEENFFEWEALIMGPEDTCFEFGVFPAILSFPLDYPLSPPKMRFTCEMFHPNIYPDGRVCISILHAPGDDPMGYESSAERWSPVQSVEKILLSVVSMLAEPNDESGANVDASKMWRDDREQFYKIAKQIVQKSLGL
Under “lacZ reporter activity”, `B1 (RNF11 RING domain)` is recorded as 0.
For `B2 (RNF32 RING domain)`, “lacZ reporter activity” read 0.
`MEEMEEELKCPVCGSFYREPIILPCSHNLCQACARNILVQTPESESPQSHRAAGSGVSDY (TRIM9 RING domain (UniProt Q9C026))`: “lacZ reporter activity” 0.
`B3 (TRIM2 RING domain)` — result for “lacZ reporter activity”: 0.
For `B4 (ARIH1 RING domain)`, “lacZ reporter activity” read 0.
Under “lacZ reporter activity”, `B5 (TRIM74 RING domain)` is recorded as 13100.
`SNNDLASLFECPVCFDYVLPPILQCQSGHLVCSNCRPKLTCCPTCRGPLGSIRNLA (SIAH1 RING domain (UniProt Q8IUQ4))`: “lacZ reporter activity” 0.
Under “lacZ reporter activity”, `B6 (TRIM68 RING domain)` is recorded as 0.
`B7 (RNF130 RING domain)` — result for “lacZ reporter activity”: 0.
`B8 (UBE4B RING domain)` — result for “lacZ reporter activity”: 0.
`B9 (RNF7 RING domain)` — result for “lacZ reporter activity”: 0.

Study 4 — target: CCND1, cyclin fold, Cln2 fusion (human); technique: yeast growth competition, sequencing; matrix: yeast; setting: weak parent motif; baseline: not given; direction: higher = stronger binding
Parent: DTL docking peptide (human); PSSMRKICTYFHR
For `PSSMRKICTYFHA [R13A]`, “normalised enrichment score” read 0.644.
Under “normalised enrichment score”, `PSSARKICTYFHR [M4A]` is recorded as 0.593.
`PSSMRAICTYFHR [K6A]`: “normalised enrichment score” 0.765.
`PSAMRKICTYFHR [S3A]` — result for “normalised enrichment score”: 0.618.
For `PASMRKICTYFHR [S2A]`, “normalised enrichment score” read 0.516.
Under “normalised enrichment score”, `PSSMAKICTYFHR [R5A]` is recorded as 0.506.

A few entries again (study 2):
`TTAGGACTAGGGACTGGGTTAGTGCTA` — result for “fitted relative affinity”: -0.963 z-score.
Under “fitted relative affinity”, `GACGAACTGAGACTTGAGACGTGCTAG` is recorded as -0.0774 z-score.
Under “fitted relative affinity”, `TTTCTTACATGCATCATAACGTGCTAG` is recorded as 2.1 z-score.
`TCATTTTTCACTATTGCACTGTGCTAG`: “fitted relative affinity” 2.92 z-score.
